Assay results pooled from the literature.
Each numbered part is a random draw from the data of one study; scales do not carry over between parts. Substitutions count along the parent as printed.
Chain of UniProt Q05655 (whole entry, looked up): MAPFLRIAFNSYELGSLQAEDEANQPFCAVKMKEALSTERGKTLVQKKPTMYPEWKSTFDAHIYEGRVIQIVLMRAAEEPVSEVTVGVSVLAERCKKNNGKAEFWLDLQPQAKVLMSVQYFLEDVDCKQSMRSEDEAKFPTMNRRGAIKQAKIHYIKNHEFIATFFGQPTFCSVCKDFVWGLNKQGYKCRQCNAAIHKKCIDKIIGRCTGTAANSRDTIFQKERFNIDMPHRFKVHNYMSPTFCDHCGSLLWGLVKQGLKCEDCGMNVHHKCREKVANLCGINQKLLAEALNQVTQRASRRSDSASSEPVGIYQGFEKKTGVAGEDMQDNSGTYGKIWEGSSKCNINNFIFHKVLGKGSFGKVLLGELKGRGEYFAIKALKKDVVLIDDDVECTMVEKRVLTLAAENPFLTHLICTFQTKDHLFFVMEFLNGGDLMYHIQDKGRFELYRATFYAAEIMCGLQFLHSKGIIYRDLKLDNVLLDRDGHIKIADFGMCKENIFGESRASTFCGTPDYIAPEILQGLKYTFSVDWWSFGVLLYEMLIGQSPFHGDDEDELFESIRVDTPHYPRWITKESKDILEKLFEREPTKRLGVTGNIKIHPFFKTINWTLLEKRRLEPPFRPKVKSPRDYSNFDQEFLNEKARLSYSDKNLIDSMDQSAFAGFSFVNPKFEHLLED

Block 1 — method: RNA Bind-n-Seq; form: RNA; matrix: in vitro; concentration: 200 nM; setting: whole 134-nt RNA, ends assumed; with: 150 mM LiCl; reference: input library; reading: higher = stronger binding; measurement: log2 enrichment; each molecule: 7-deaza-guanosine replaces G
Target: Ras GTPase-activating protein-binding protein 1, full length (G3BP1, Homo sapiens, UniProt Q13283)
Chain of UniProt Q13283 (whole entry, looked up): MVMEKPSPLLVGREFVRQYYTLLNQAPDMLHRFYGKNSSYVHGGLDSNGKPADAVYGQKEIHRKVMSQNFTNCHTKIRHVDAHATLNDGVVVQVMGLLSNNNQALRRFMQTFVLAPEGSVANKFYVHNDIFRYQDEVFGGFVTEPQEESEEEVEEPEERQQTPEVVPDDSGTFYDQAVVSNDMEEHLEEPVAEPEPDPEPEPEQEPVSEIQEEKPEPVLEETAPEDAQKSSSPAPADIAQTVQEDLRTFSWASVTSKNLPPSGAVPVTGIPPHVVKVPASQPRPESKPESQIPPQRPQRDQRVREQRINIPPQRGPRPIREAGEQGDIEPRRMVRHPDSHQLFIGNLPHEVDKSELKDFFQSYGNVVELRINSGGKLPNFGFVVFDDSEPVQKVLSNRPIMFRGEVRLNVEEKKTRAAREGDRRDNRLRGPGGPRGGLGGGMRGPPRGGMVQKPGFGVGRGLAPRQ
Sequence = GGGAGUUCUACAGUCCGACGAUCCCUCAAGUCCUGUGCUACACAUCGUAUGUACCGAAUCGGUGGUGGGGUGGGGAAAGUAUUAUGUUACGCCGUUCGGAUCUGCACUUCCAGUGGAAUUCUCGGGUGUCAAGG; value = 0.523
Sequence = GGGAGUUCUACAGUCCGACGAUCCUGUGCUACACAUCGUAUGUACCGAAUCGGGGUUUUUUUGGGGUUUUUUUGGUUUUUUUGGAAAGUAUUAUGUUACGCCGUUCGGAUCUGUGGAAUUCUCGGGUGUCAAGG; value = 1.31
Sequence = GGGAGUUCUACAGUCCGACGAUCUUGGACUUGGAGCAUCUGCUCAGUGAGUCUCCAGAAGGAAGUCCCUUCCGAGAUAUGGAUGAUGGAAGUGAUUCCCUUGGGGUGGGAUUGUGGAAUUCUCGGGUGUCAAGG; value = -2.23
Sequence = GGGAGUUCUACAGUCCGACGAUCAAGACAUUUGUUGUAUUUAUGGUUGUAACUGUACAUGCUUAUCAGGAUGAGACUGAAAGAAGGUAGGGCAAAAAUGGUUGAAUCUAUUUUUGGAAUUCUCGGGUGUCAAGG; value = -1.17
Sequence = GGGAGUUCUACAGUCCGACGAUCUGUCAGGAUUAUGAAGAAGCUGUGCUCUUGCUGUUAGAAGGAGCUGCCUGGGAAGAAGCUUUGAGGCUGGUAAGAAUCUUGUAAAUCCUCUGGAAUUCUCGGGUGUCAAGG; value = -1.03
Sequence = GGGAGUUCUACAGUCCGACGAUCCUCAAGUCCUGUGCUACACAUCGUAUGUACCGAAUCGGGAAGGGGAAGGAAGGAAAGUAUUAUGUUACGCCGUUCGGAUCUGCACUUCCAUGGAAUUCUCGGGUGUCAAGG; value = -0.656
Sequence = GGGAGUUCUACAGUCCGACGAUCUGGGGACAAGCUGACAGCAGCCAUGGCGAGCGGCAGUGGAGACAGCGUCACCCGUCGGAGCGUGGCAUCACAGUUUUUCACUCAAGAGGAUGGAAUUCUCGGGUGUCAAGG; value = -0.279
Sequence = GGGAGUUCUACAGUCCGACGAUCAAGUCCUGUGCUACACAUCGUAUGUACCGAAUCGGGGAAAGGGGAAAGGGGAGGGGAAAGUAUUAUGUUACGCCGUUCGGAUCUGCACUUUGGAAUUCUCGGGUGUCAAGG; value = 0.548

Block 2 — target: CCNF, cyclin fold, Cln2 fusion (human); method: yeast growth competition, sequencing; matrix: yeast; setting: weak parent motif; reference: not given; reading: higher = stronger binding; measurement: normalised enrichment score
Starting sequence: WEE2 docking peptide (human); KELRQKLNFSYCE
Substitution = S10A; value = 1.04
Substitution = F9A; value = 0.646
Substitution = Q5A; value = 0.755
Substitution = E2A; value = 1.76
Substitution = K1A; value = 0.238
Substitution = N8A; value = 0.869
Substitution = E13A; value = 1.27

Block 3 — method: EMSA with sequencing; form: double-stranded DNA, one strand shown; matrix: in vitro; concentration: 10 and 20 nM; reference: negative control set to 0; reading: higher = stronger binding; measurement: normalised bound fraction
Target: Hepatocyte nuclear factor 3-alpha (Foxa1, Mus musculus, UniProt P35582, residues 1-468, full length assumed)
Setting: whole designed probe, mean of two concentrations, ends assumed
Target sequence (chain): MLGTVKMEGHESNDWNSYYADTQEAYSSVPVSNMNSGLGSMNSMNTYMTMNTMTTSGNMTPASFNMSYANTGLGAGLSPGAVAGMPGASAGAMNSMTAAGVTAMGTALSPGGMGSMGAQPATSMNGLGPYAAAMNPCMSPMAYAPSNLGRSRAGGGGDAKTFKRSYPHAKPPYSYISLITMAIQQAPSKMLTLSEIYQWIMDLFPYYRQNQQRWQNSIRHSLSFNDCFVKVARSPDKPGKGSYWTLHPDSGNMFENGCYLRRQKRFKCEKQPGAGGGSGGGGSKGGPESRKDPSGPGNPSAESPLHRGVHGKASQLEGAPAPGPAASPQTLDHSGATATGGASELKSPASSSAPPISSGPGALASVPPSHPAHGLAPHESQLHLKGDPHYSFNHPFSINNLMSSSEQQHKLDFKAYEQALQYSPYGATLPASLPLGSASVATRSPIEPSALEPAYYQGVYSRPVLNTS
Sequence = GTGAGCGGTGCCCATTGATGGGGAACTCTCCCCGTGTGGCATCAAGGCGGGCTCCCTATAGGAGCTGGTGTGGACGTCCGGGCGTGGGGTTAGGGCGGATGCGGGGATCGCGGGGCGGGTGTTGACATTGTGCTCTCACCAGGCGGATCGCCCCGACCCTCACTCCTGGCGTCTGAGTCTCTGGCGTAGCCCATGCTGAGTGGGCGGCTGGTCCTGGGTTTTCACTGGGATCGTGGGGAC; value = 0.138 ratio
Sequence = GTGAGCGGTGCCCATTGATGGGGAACTCCATGTAATGAAAGGTGATGAATTTAGCTTGCTTTCTCTGCTTCCTTCTTTCAGTCCCTGCCAGTCACATATTTATTTACTTCTTCTTCTATAAATTACTTTTAGAAATTTAAATAATATATTTCAACATCTATTTCCTGACTTCTTGTTGGATCATTGCCTGTACAAAAATGATTTTGTTTTATTCTCATATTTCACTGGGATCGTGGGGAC; value = 0.238 ratio
Sequence = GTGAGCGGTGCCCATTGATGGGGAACATCTTCCCCCTCTTCCTTGCCCCACCAGCTCACCTTCCCGGGTTATTTGCAGATAGGAAAATAAATAAAGCCGGCATTCGTTAACCCCCGGGTTTCTCAAACTGCTGTTTGCTCTGGATGAATCATGGTCCTTTGGCGACGCCAGGCTCCGGGAGAGCAAAGCACCGTGTCAGGGCCATGATCCGGGGTGGCCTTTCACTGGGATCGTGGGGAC; value = 0.359 ratio
Sequence = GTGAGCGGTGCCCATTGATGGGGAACCAGAGAGTGTTTGCAGTTGTTCATCCTAAATTACACTGTTGTTTTAGCCTGTTGTGTGCTCAGAGCTGATTAATAAACAGAAATTAAGTCACTTATTTACTTTTTGCTTCAAATCACAGTGTGCGACTCGAGTGGTTGATATCTCACTGATATTTGTGAATGCGTGGATGAGTGACTGGATCTGCTTGTGTGTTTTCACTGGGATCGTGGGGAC; value = 0.386 ratio
Sequence = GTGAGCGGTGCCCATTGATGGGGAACGTCTAGCTCCAGTCTTAGCATGGCAATTTCTTCCCGCAACGTACTATTTTCATGCAAGAAGTCTTTTTCTTTCTTACAACTAAGAGAAAGCTAAGTAAACAAAGAGAACTTTTAGTTAGCACTCAATAGATTGACATATCATTATTTCTTCTGAAATTCAAAAATAACATGTATTTGTATAATGAAAGAATCCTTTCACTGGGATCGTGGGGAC; value = 0.497 ratio
Sequence = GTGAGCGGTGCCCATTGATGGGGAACTAAAATGGTGTTTAATTTTAGCATTTAACAACTCATTTGTTGCTTTCTTATGACATACAAAAGAAAGAGAAGGTTACTGATTCACACAAACATGTTTACATTGGAATTCCAACGTAATTTCTTTTCTAGAATAGCCAAAATAATACATGCCATTGACACAAAGAACAATAAACCTATATTTTATATAGGTGCATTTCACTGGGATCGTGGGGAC; value = 0.3 ratio
Sequence = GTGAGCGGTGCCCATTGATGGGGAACGAAAAGTGCAAAGCGTTGGCATCTGGGTCCTTCGTGAAGCTGTGTGATTCTGGACTTTGGACTGTAGTCCACTGTAGCCTGCCTTCTCACTGTGTAAATACATAACTACATGGGCTCCCGTGAGCTTGCCACACGCCACAGGCTATGCCTAATTCTACAAAGCCTGAAGGAAAAATACTGTGAAAAATACTTATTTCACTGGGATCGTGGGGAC; value = 0.379 ratio
Sequence = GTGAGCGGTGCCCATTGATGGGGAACCTAAAATTGTCTTTTTTAGCTGTATCATGATTGCTTAAAGGCCACTTTATCCATGCTTATTGAAACACTTTCAATAATTGGACACAAATATTTGTTTACATTGTTTCCTGCTTGCTAATTTATCCTCCTGCATTTCTTTAAAAGCATTCATTTGCAATCTTAGTCCTCTTTAAAGACATTGTTTTATTTGAAATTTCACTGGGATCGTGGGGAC; value = 0.469 ratio

Mixed results
SMILES = CN1CCN(c2ccc3nc(-c4c(N)c5c(F)cccc5[nH]c4=O)[nH]c3c2)CC1; target = Protein kinase C delta type (PRKCD, Homo sapiens, UniProt Q05655); test = enzyme activity, inhibitor; setting = 0.5 µM; how to read = reference: control; measurement = remaining activity; value = 90.9%

Excerpt of the above (block 1):
Sequence = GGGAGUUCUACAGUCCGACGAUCCCUCAAGUCCUGUGCUACACAUCGUAUGUACCGAAUCGGUGGUGGGGUGGGGAAAGUAUUAUGUUACGCCGUUCGGAUCUGCACUUCCAGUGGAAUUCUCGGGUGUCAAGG; value = 0.523
Sequence = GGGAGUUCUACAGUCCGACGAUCUGUCAGGAUUAUGAAGAAGCUGUGCUCUUGCUGUUAGAAGGAGCUGCCUGGGAAGAAGCUUUGAGGCUGGUAAGAAUCUUGUAAAUCCUCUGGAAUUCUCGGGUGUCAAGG; value = -1.03
Sequence = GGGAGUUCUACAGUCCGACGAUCCUCAAGUCCUGUGCUACACAUCGUAUGUACCGAAUCGGGAAGGGGAAGGAAGGAAAGUAUUAUGUUACGCCGUUCGGAUCUGCACUUCCAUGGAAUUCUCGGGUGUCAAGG; value = -0.656
